Measurements pooled from the literature.
A part holds a random share of what one study measured. “And” joins repeats or separate records; there may be more than shown.
UniProt Q8TF76, sequence (whole entry, looked up): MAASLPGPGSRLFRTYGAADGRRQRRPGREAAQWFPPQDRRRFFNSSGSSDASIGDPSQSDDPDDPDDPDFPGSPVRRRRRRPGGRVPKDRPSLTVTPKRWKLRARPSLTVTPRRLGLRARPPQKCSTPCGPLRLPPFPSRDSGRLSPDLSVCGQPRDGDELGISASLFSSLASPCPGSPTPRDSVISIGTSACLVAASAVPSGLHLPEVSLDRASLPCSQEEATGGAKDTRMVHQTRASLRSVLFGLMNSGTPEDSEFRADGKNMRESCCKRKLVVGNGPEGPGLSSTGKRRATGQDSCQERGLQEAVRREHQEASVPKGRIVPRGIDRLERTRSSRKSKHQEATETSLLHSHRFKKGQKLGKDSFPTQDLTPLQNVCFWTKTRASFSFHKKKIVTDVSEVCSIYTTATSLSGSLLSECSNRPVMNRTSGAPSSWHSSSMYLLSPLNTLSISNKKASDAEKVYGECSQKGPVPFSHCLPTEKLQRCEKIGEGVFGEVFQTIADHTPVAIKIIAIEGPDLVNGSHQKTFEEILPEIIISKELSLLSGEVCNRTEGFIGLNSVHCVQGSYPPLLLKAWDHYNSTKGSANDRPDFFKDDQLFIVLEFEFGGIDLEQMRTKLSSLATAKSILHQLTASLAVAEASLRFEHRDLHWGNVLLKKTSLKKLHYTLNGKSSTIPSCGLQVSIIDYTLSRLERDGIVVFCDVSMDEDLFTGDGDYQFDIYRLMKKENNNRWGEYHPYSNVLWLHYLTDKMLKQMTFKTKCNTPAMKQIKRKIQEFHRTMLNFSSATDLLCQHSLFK

Series 1
Cell line: mouse MPNST tumor cells
Technique: high-content immunofluorescence imaging
Refers to: nuclear SOX9
Concentration: 10 µM
Time: 12 h
Notes: mean of 2 replicates
Relative to: DMSO control
Direction: higher = more nuclear SOX9
Structure (SMILES)	nuclear SOX9 intensity
O=c1oc2c(C3OCCCO3)c(O)ccc2c2c1CNCC2	101 % of DMSO
CC(C)(C)NC(=O)[C@@H]1CN(Cc2cccnc2)CCN1C[C@@H](O)C[C@@H](Cc1ccccc1)C(=O)N[C@H]1c2ccccc2C[C@H]1O	93.2 % of DMSO
CCc1nc2c(o1)CC(c1ccc(C)cc1C)CC2=O (racemic)	106 % of DMSO
CN1CCc2ccccc2Cc2[nH]c3ccccc3c2CC1	107 % of DMSO

Series 2
Target: Sal-like protein 4, full length isoform B (SALL4, Homo sapiens, UniProt Q9UJQ4-2, residues 1-616)
Technique: universal PBM
Molecule type: double-stranded DNA, one strand shown
Medium: in vitro
Concentration: not given
Notes: 8-mer, flanks averaged, mean of replicates
Direction: higher = stronger binding
Target sequence (chain): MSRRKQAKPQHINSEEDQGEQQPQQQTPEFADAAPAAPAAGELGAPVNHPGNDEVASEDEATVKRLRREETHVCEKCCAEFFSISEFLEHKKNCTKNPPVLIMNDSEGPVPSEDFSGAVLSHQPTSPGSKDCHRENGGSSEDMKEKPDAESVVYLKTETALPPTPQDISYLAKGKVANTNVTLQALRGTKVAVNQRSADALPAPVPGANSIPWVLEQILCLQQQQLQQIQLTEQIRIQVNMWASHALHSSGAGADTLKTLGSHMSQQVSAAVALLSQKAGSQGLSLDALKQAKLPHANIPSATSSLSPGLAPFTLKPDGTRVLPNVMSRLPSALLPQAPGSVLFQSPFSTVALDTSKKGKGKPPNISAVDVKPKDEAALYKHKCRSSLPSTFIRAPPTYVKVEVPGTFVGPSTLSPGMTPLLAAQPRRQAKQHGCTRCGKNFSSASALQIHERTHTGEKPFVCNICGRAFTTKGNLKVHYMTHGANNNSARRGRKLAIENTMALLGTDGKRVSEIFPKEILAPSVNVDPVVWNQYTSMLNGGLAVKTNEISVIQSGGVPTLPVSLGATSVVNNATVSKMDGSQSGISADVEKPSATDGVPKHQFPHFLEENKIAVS
Strand	E-score
CAGCACAG	-0.108
TCAGATCA	0.019
CCTATCGA	0.107
CTACCGTA	0.0485
CATGCTAG	0.0479
CATCACTC	-0.127
ACTAGGAT	0.108
CTCCGCTA	-0.176

Series 3
Cell line: HaCaT
Concentration: 100 µM
Time: 36 h
SMILES	viability [%]
CN(C)CCOC(C)(c1ccccc1)c1ccccn1 (centres unmarked)	42.5
C[C@@H](O)[C@H]1C(=O)N2C(C(=O)O)=C(S[C@@H]3CN[C@H](CNS(N)(=O)=O)C3)[C@H](C)[C@H]12	108
CC1(C)NC(=O)N(c2ccc([N+](=O)[O-])c(C(F)(F)F)c2)C1=O	65.3
N=C(N)/N=C(\N)N1CCOCC1	97.5
CC(C)N1CCN(c2ccc(OC[C@H]3CO[C@](Cn4cncn4)(c4ccc(Cl)cc4Cl)O3)cc2)CC1 (racemic)	4.9
N[C@@H](Cc1cc(I)c(Oc2cc(I)c(O)c(I)c2)c(I)c1)C(=O)O	43
CC(C)NCC(O)COc1ccc(CCOCC2CC2)cc1 (centres unmarked)	72.7
CC(=O)N(CC(O)CO)c1c(I)c(C(=O)NCC(O)CO)c(I)c(C(=O)NCC(O)CO)c1I (mixture of isomers)	96.7
Nc1nc(CC(=O)Nc2ccc(CCNC[C@H](O)c3ccccc3)cc2)cs1	69.8
COc1cc2ccc(=O)oc2c(O)c1O	115
CN1CCN(c2c(F)cc3c(=O)c(C(=O)O)cn4c3c2OCN4C)CC1	98.8
CC1(C)CCC(CN2CCN(c3ccc(C(=O)NS(=O)(=O)c4ccc(NCC5CCOCC5)c([N+](=O)[O-])c4)c(Oc4cnc5[nH]ccc5c4)c3)CC2)=C(c2ccc(Cl)cc2)C1	10.5
CC1(C)S[C@@H]2[C@H](NC(=O)[C@H](N)c3ccccc3)C(=O)N2[C@H]1C(=O)OCOC(=O)[C@@H]1N2C(=O)C[C@H]2S(=O)(=O)C1(C)C	98.3
Cc1cnc(NC(=O)C2=C(O)c3ccccc3S(=O)(=O)N2C)s1	48
C=C[C@H]1[C@H](O[C@@H]2O[C@H](CO)[C@@H](O)[C@H](O)[C@H]2O)OC=C2C(=O)OCC[C@]21O	94.8

Single results of other studies
Structure (SMILES)	target or system	test	test system	setting	how to read	measurement	result
CN1CC[C@H](c2c(O)cc(O)c3c(=O)cc(-c4ccccc4Cl)oc23)[C@H](O)C1	HuT78	RNA-seq, refers to: CDCA3		concentration not given	relative to: untreated control	log2 fold change	-0.814
CC(=O)N[C@@H](Cc1c[nH]c2ccccc12)C(=O)N[C@@H](CCC(=O)C=[N+]=[N-])C(=O)OC(C)C		UPLC-MS/MS	EL4 tumor, C57BL/6 CES1-/- mice, tumor	subcutaneous, 0.3 mg/kg DON equivalent daily, 5 days	higher = more metabolite	threonate level	1.13e+09 a.u. and 1.44e+09 a.u. and 1.67e+09 a.u. and 1.51e+09 a.u. and 1.46e+09 a.u. and 1.94e+09 a.u.
O=C1CCC(N2Cc3cc(C4CCN(Cc5ccccc5)CC4)ccc3C2=O)C(=O)N1 (centres unmarked)			Sprague Dawley rats, male, plasma	intravenous, 1.0 mg/kg		steady-state volume of distribution	12.6 L/kg
CCc1[nH]c(-c2ccc(OC)cc2)nc1-c1ccncc1	Serine/threonine-protein kinase haspin (HASPIN, Homo sapiens, UniProt Q8TF76)	enzyme activity, inhibitor, radiometric				IC50	731 nM
Cn1cncc1[C@@](O)(COc1ccc(C#N)cc1-c1ccc(OC(F)(F)F)cc1)c1ccc(C#N)cc1	HEK293T	high-content imaging		10 µM, 12 h		apoptotic cells	34.2% and 22.7%

Excerpt of the above (series 3):
SMILES	viability [%]
CC(C)NCC(O)COc1ccc(CCOCC2CC2)cc1 (centres unmarked)	72.7
CC(=O)N(CC(O)CO)c1c(I)c(C(=O)NCC(O)CO)c(I)c(C(=O)NCC(O)CO)c1I (mixture of isomers)	96.7
Nc1nc(CC(=O)Nc2ccc(CCNC[C@H](O)c3ccccc3)cc2)cs1	69.8
